Measured values from different studies.
± gives the spread as reported.
Method: steady-state kinetics
B1: enzyme (Brachypodium distachyon, UniProt I1IPY7); chain MEQGKAALGWAARDASGHLSPYNFSRRVQKDDDVTIKVLFCGICHTDLHIIKNEWGNALYPIVPGHEVVGVVTDVGPGVKNFKAGETVGVGYFLDSCRTCDSCSKGHENYCPTLVLTSNGVDYDGATTQGGFSDVVVVNQDYVVRVPDTLPPDGAAPLLCAGVTVYSPMMQYGLNAPGKHLGVVGLGGLGHMAVKFGKAFGMKVTVISSSLRKREEALDRLGADDFLVSSDAEQMKAAAGAMDGIIDTVSAGHPIVPLLELLRPMGQMVVCGAPSEPLQLPAYAVITGGKRIAGNGVGSVRDCQAMLDFAGEHGITADVEVVKMDYVNTAVERLERNDVRYRFVIDVAGSLQQGGAA
B2: protein G96D/P94L (Streptomyces coelicolor, UniProt P16544); chain MATQDSEVALVTGATSGIGLEIARRLGKEGLRVFVCARGEEGLRTTLKELREAGVEADGRTCDVRSVPEIEALVAAVVERYGPVDVLVNNAGRLGDGATAELADELWLDVVETNLTGVFRVTKQVLKAGGMLERGTGRIVNIASTGGKQGVVHAAPYSASKHGVVGFTKALGLELARTGITVNAVCPGFVETPMAASVREHYSDIWEVSTEEAFDRITARVPIGRYVQPSEVAEMVAYLIGPGAAAVTAQALNVCGGLGNY
B3: enzyme A178R/D177A/P184R (Levilactobacillus brevis, UniProt Q03Q85); chain MKVTVVGCTHAGTFAIKQILAEHPDAEVTVYERNDVISFLSCGIALYLGGKVADPQGLFYSSPEELQKLGANVQMNHNVLAIDPDQKTVTVEDLTNHAQTTESYDKLVMTSGSWPIVPKIPGIDSDRVKLCKNWAHAQALIEDAKEAKRITVIGAGYIGAELAEAYSTTGHDVTLIARMARVMRKYFDADFTDVIEQDYRDHGVQLALGETVESFTDSATGLTIKTDKNSYETDLAILCIGFRPNTDLLKGKVDMAPNGAIITDDYMRSSNPDIFAAGDSAAVHYNPTHQNAYIPLATNAVRQGILVGKNLVKPTVKYMGTQSSSGLALYDRTIVSTGLTLAAAKQQGLNAEQVIVEDNYRPEFMPSTEPVLMSLVFDPDTHRILGGALMSKYDVSQSANTLSVCIQNENTIDDLAMVDMLFQPNFDRPFNYLNILAQAAQAKVAQSVNA
B4: POLK T408W/W214Y/W392H (Homo sapiens, UniProt Q9UBT6); chain MGLNDNKAGMEGLDKEKINKIIMEATKGSRFYGNELKKEKQVNQRIENMMQQKAQITSQQLRKAQLQVDRFAMELEQSRNLSNTIVHIDMDAFYAAVEMRDNPELKDKPIAVGSMSMLSTSNYHARRFGVRAAMPGFIAKRLCPQLIIVPPNFDKYRAVSKEVKEILADYDPNFMAMSLDEAYLNITKHLEERQNYPEDKRRYFIKMGSSVENDNPGKEVNKLSEHERSISPLLFEESPSDVQPPGDPFQVNFEEQNNPQILQNSVVFGTSAQEVVKEIRFRIEQKTTLTASAGIAPNTMLAKVCSDKNKPNGQYQILPNRQAVMDFIKDLPIRKVSGIGKVTEKMLKALGIITCTELYQQRALLSLLFSETSHHYFLHISLGLGSTHLWRDGERKSMSVERTFSEINKAEEQYSLCQELCSELAQDLQKERLKGRTVTIKLKNVNFEVKTRASTVSSVVSTAEEIFAIAKELLKTEIDADFPHPLRLRLMGVRISSFPNEEDRKHQQ
B5: enzyme (UniProt A0A2T5C445); chain MKSKQLNTDLFKVQAKQQIRLKNYDPASCNGFANRKEAEHQLKQDIKELADLQYQLYAENKRSVLIVFQAMDAAGKDGSIRHVFSGLNPQGCKVYSFKSPSANELDHDYLWRHYNKLPPRGEIGIFNRSHYENVLITRVHPEFLLNENLPDVHATNDITTEFWERRYRQIRDFEQTLTENGTTIIKFFLHLSKDEQKKRFMERIRKPAKNWKFSSADIRERQYWDDYQHAYEQAMRATSTEEAPWYIIPADNKWFTHVAIGNIIVETLQQMNIQMPEISSEEKDALKKAKKKLQNE
B6: protein (Stereum hirsutum, UniProt P9WEW0); chain MTVVDSPQRFYIPNCLEYWPWPRHINPHYQEVKKASAAWAESFGAFNPKAQHAYNACDFNLLASLAYPLESEERLRTGCDLMNMFFVFDEYSDVSSPKDVIQQAAIIMDALRNPYAPRPDDEWVGGEVTRQFWKRAIKTATAGAQRRFIDAFESYTQSVVQQAKDRHHGFIRDVDSYLEMRRETIGAKPSFVVLQMDMTLPDEVLAHPVIQQLSALSTDMICLGNDICSYNVEQARGDDLHNIITIAMNQFDIDIAGAMDWVVKYHAKLERKFLYLYNNGLPSWGKELDPQVERYVCGLGNWVRASDQWGFESERYFGKKGKEIFKRRWVNLMQPERAQDIGPTLVDGTRL
B7: iodotyrosine deiodinase (Haliscomenobacter hydrossis, UniProt F4KU78); chain MKQKPAFIPYAGAQFEPEEMLSKSAEYYQFMDHRRTVREFSNRAIPLEVIENIVMTASTAPSGAHKQPWTFVVVSDPQIKAKIRQAAEKEEFESYNGRMSNEWLEDLQPFGTDWHKPFLEIAPYLIVVFRKAYDVLPDGTQRKNYYVQESVGIACGFLLAAIHQAGLVALTHTPSPMNFLQKILQRPENERPFLLVPVGYPAEGAMVPDLQRKDKAAVMVVY
B8: enzyme (Bacillus pumilus, UniProt A8FFI9); chain EARSIAWSVDEFFKNREGTFVIQEVKEKSPWVYNKKRAKERFAPQSTFKVANALIGLQTGAVRDEYDIKYWDGVKREIDNWNRDHTLGSGMRDSVVWYYQAMARDIGEERMNHWVKAIHYGNKDISGGIDQFWLSSTLRISPIEQVRFLKQLYEETLPFDLKNMRTVKRMMVQEEEKHATLYGKTGSGSDIGWYVGFIKHEHKTYILATNIKGTGIEAKDITYRILKKYHLMEASV
B9: TcA (Trypanosoma cruzi, UniProt Q4DRC4); chain MFIRLFAREEEGEKEGKICHMPREYEFAEKILFTEEEIRTRIKEVAKRIADDYKGKGLRPYVNPLVLISVLKGSFMFTADLCRALCDFNVPVRMEFICVSSYGEGLTSSGQVRMLLDTRHSIEGHHVLIVEDIVDTALTLNYLYHMYFTRRPASLKTVVLLDKREGRRVPFSADYVVANIPNAFVIGYGLDYDDTYRELRDIVVLRPEVYAEREAARQKKQRAIGSADTDRDAKREFHSKY
B10: FNO G29W (Thermobifida fusca, UniProt Q47RA9); chain MIMIMASKSSPHDLPDVSGLSIAVLGGTWDQGRGLARRFAMAGHEVILGSRSAERAQAVAAELGEGLPVRGMDNAGAAEAGDVVIVAVPWDGHRALLESLKDVLAGKIVVDCVNPLGFDKRGAYALPVEEGSAAEQAAAILPDSRVVAAFHHVSAVLLLDPEVEKVDLDVLVLGDDREATDVVRALAARIPGVRGVYGGRLRNAHQVEAFTANLISINRRYKAHAGIRITDI
B11: ERAP1 (Homo sapiens, UniProt Q9NZ08); chain MVFLPLKWSLATMSFLLSSLLALLTVSTPSWCQSTEASPKRSDGTPFPWNKIRLPEYVIPVHYDLLIHANLTTLTFWGTTKVEITASQPTSTIILHSHHLQISRATLRKGAGERLSEEPLQVLEHPRQEQIALLAPEPLLVGLPYTVVIHYAGNLSETFHGFYKSTYRTKEGELRILASTQFEPTAARMAFPCFDEPAFKASFSIKIRREPRHLAISNMPLVKSVTVAEGLIEDHFDVTVKMSTYLVAFIISDFESVSKITKSGVKVSVYAVPDKINQADYALDAAVTLLEFYEDYFSIPYPLPKQDLAAIPDFQSGAMENWGLTTYRESALLFDAEKSSASSKLGITMTVAHELAHQWFGNLVTMEWWNDLWLNEGFAKFMEFVSVSVTHPELKVGDYFFGKCFDAMEVDALNSSHPVSTPVENPAQIREMFDDVSYDKGACILNMLREYLSADAFKSGIVQYLQKHSYKNTKNEDLWDSMASICPTDGVKGMDGFCSRSQHSSSSSHWHQEGVDVKTMMNTWTLQKGFPLITITVRGRNVHMKQEHYMKGSDGAPDTGYLWHVPLTFITSKSDMVHRFLLKTKTDVLILPEEVEWIKFNVGMNGYYIVHYEDDGWDSLTGLLKGTHTAVSSNDRASLINNAFQLVSIGKLSIEKALDLSLYLKHETEIMPVFQGLNELIPMYKLMEKRDMNEVETQFKAFLIRLLRDLIDKQTWTDEGSVSERMLRSQLLLLACVHNYQPCVQRAEGYFRKWKESNGNLSLPVDVTLAVFAVGAQSTEGWDFLYSKYQFSLSSTEKSQIEFALCRTQNKEKLQWLLDESFKGDKIKTQEFPQILTLIGRNPVGYPLAWQFLRKNWNKLVQKFELGSSSIAHMVMGTTNQFSTRTRLEEVKGFFSSLKENGSQLRCVQQTIETIEENIGWMDKNFDKIRVWLQSEKLEHDPEADATG
Sequence of UniProt Q8QZR1 (whole entry, looked up): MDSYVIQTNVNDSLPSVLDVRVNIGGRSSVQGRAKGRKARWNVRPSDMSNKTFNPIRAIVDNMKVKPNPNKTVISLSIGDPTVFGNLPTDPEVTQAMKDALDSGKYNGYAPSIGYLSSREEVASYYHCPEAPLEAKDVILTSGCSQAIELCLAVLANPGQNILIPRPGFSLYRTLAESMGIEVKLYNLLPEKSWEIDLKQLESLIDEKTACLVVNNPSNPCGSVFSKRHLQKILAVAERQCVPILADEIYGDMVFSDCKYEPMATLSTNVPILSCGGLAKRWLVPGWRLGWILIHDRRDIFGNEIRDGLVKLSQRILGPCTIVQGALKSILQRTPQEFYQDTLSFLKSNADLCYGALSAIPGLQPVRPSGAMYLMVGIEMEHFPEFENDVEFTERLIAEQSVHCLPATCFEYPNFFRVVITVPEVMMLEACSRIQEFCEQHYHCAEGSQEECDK
Sequence of UniProt P19337 (whole entry, looked up): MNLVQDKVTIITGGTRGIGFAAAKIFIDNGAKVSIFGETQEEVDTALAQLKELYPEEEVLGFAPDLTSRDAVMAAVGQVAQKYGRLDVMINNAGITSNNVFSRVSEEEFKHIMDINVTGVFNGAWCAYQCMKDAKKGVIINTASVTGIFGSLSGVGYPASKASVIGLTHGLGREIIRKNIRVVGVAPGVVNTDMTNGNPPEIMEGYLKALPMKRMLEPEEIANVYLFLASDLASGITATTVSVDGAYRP
Sequence of UniProt O48715 (whole entry, looked up): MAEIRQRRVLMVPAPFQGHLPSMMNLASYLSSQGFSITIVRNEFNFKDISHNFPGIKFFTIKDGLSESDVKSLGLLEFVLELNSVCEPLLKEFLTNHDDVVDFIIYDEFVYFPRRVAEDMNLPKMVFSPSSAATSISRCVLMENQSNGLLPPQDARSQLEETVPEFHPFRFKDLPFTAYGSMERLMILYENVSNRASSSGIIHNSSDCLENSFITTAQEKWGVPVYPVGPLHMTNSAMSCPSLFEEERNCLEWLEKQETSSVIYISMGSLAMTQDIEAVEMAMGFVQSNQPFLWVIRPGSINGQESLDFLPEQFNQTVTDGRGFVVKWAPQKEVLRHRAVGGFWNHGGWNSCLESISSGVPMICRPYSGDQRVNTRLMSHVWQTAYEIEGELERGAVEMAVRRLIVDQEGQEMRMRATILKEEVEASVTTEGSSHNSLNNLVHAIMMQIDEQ
Sequence of UniProt P14780 (whole entry, looked up): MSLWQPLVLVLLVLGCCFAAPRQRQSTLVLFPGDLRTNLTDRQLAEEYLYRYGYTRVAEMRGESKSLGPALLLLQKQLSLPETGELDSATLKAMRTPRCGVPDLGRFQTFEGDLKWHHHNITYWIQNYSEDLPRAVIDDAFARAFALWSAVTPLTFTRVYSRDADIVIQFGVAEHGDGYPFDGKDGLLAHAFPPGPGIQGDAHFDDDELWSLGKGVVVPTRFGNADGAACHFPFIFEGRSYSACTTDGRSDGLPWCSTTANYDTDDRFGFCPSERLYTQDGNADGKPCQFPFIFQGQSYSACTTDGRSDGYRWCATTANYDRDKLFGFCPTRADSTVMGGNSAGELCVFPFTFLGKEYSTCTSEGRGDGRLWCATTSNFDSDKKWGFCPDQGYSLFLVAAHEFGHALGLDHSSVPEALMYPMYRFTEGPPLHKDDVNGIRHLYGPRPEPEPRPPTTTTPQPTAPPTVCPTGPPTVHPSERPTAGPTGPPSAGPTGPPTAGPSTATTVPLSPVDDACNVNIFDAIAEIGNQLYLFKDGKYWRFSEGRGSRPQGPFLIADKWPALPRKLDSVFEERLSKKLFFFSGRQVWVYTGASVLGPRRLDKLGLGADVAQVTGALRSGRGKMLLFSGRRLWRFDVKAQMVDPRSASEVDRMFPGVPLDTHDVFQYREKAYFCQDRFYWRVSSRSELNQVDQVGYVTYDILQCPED

Tat (Mus musculus, UniProt Q8QZR1) — kcat/Km (CCCCC(=O)C(=O)O; pH 7, 38 °C, added: PLP): 333 M⁻¹ s⁻¹
B1 (enzyme) — kcat/Km (NC(=O)c1ccc[n+]([C@@H]2O[C@H](COP(=O)(O)OP(=O)(O)OC[C@H]3O[C@@H](n4cnc5c(N)ncnc54)[C@H](OP(=O)(O)O)[C@@H]3O)[C@@H](O)[C@H]2O)c1; pH 8.8, 23 °C, cofactor varied): 79000 M⁻¹ s⁻¹
B2 (protein G96D/P94L) — kcat/Km (O[C@H]1CCCc2ccccc21; pH 7.4, phosphate 400 mM, NADPH 250 µM printed, added: NADP+, reverse reaction): 20 ± 4 M⁻¹ s⁻¹
B3 (enzyme A178R/D177A/P184R) — kcat/Km (NC(=O)C1=CN([C@@H]2O[C@H](COP(=O)(O)OP(=O)(O)OC[C@H]3O[C@@H](n4cnc5c(N)ncnc54)[C@H](OP(=O)(O)O)[C@@H]3O)[C@@H](O)[C@H]2O)C=CC1; pH 7.5, 37 °C, per site): 2.9e+06 ± 1.4e+06 M⁻¹ s⁻¹
B4 (POLK T408W/W214Y/W392H) — kcat/Km (Nc1ccn([C@H]2C[C@H](O)[C@@H](COP(=O)(O)OP(=O)(O)OP(=O)(O)O)O2)c(=O)n1; pH 7.5, 23 °C, MgCl2 5 mM, added: G template): 13000 M⁻¹ s⁻¹
enzyme (Arabidopsis thaliana, UniProt O48715) — kcat/Km (O=c1ccn([C@@H]2O[C@H](CO[P@@](=O)(O)O[P@@](=O)(O)O[C@H]3O[C@H](CO)[C@@H](O)[C@H](O)[C@H]3O)[C@@H](O)[C@H]2O)c(=O)[nH]1; pH 7.5, 25 °C): 185 M⁻¹ s⁻¹
pyc (Rhizobium etli, UniProt Q2K340) — kcat/Km (Nc1ncnc2c1ncn2[C@@H]1O[C@H](COP(=O)(O)OP(=O)(O)OP(=O)(O)O)[C@@H](O)[C@H]1O; pH 7.8, 30 °C, no pyruvate, added: NaHCO3 20 mM, acetyl CoA 0.25 mM, Mg2+ 5 mM): 6860 M⁻¹ s⁻¹
B5 (enzyme) — kcat/Km (Nc1nc2c(ncn2[C@@H]2O[C@H](COP(=O)(O)O)[C@@H](O)[C@H]2O)c(=O)[nH]1; pH 8, 30 °C): 14000 M⁻¹ s⁻¹
B6 (protein) — kcat/Km (CC(C)=CCC/C(C)=C/CC/C(C)=C/CO[P@@](=O)(O)OP(=O)(O)O; pH 8, NaCl 200 mM, added: FPP 1–100 µM): 889 ± 70 M⁻¹ s⁻¹
alanine aminopeptidase (Neisseria meningitidis, UniProt Q9JYV4) — kcat/Km (NC(=O)Cc1cc(=O)oc2cc(NC(=O)[C@@H](N)CCC(=O)OCc3ccccc3)ccc12; pH 7.5, 37 °C): 111000 ± 5000 M⁻¹ s⁻¹
MMP9 (Homo sapiens, UniProt P14780) — kcat/Km (CSCC[C@H](NC(=O)CNC(=O)[C@H](CC(C)C)NC(=O)[C@@H]1CCCN1C(=O)CNC(C)=O)C(=O)N[C@@H](Cc1c[nH]cn1)C(=O)NCC(=O)N[C@@H](CCCCN)C(N)=O): 230000 M⁻¹ s⁻¹
B7 (iodotyrosine deiodinase) — kcat/Km (N#Cc1cc(C[C@H](N)C(=O)O)cc(I)c1O; pH 7.4, 25 °C): 500 ± 200 M⁻¹ s⁻¹
BaiA2 (Clostridium scindens, UniProt P19337) — kcat/Km (C[C@H](CCC(=O)SCCNC(=O)CCNC(=O)[C@H](O)C(C)(C)COP(=O)(O)OP(=O)(O)OC[C@H]1O[C@@H](n2cnc3c(N)ncnc32)[C@H](O)[C@@H]1OP(=O)(O)O)[C@H]1CC[C@H]2[C@@H]3CC[C@@H]4CC(=O)CC[C@]4(C)[C@H]3CC[C@]12C; pH 8.7, 37 °C, added: NADH): 93600 M⁻¹ s⁻¹
B8 (enzyme) — kcat/Km (Cc1onc(-c2ccccc2)c1C(=O)N[C@@H]1C(=O)N2[C@@H]1SC(C)(C)[C@@H]2C(=O)O; pH 7): 4.7e+06 ± 1.4e+06 M⁻¹ s⁻¹
B9 (TcA) — kcat/Km (O=c1[nH]c(=O)c2[nH]cnc2[nH]1; pH 8.3, 37 °C, apparent, added: PRPP 1 mM, MgCl2 12 mM): 30 ± 8 M⁻¹ s⁻¹
B10 (FNO G29W) — kcat/Km (CC(=O)c1ccc[n+](Cc2ccccc2)c1; pH 8, 25 °C, added: F420H2 40 µM): 568 ± 97 M⁻¹ s⁻¹
B11 (ERAP1) — kcat/Km (CC(C)C[C@H](NC(=O)CNC(=O)[C@H](CCC(=O)O)NC(=O)[C@H](Cc1ccccc1)NC(=O)[C@H](CCCNC(=N)N)NC(=O)[C@H](CCCCN)NC(=O)[C@@H](N)Cc1ccc(O)cc1)C(=O)N[C@H](C(=O)N[C@@H](CCC(N)=O)C(=O)N[C@@H](CCCNC(=N)N)C(=O)O)[C@@H](C)O; 25 °C): 10000 ± 2000 M⁻¹ s⁻¹

A few entries again:
B5 (enzyme) — kcat/Km (Nc1nc2c(ncn2[C@@H]2O[C@H](COP(=O)(O)O)[C@@H](O)[C@H]2O)c(=O)[nH]1; pH 8, 30 °C): 14000 M⁻¹ s⁻¹
B6 (protein) — kcat/Km (CC(C)=CCC/C(C)=C/CC/C(C)=C/CO[P@@](=O)(O)OP(=O)(O)O; pH 8, NaCl 200 mM, added: FPP 1–100 µM): 889 ± 70 M⁻¹ s⁻¹
alanine aminopeptidase (Neisseria meningitidis, UniProt Q9JYV4) — kcat/Km (NC(=O)Cc1cc(=O)oc2cc(NC(=O)[C@@H](N)CCC(=O)OCc3ccccc3)ccc12; pH 7.5, 37 °C): 111000 ± 5000 M⁻¹ s⁻¹
